Results pooled from the literature.
Lines come from different studies, so protocols differ. “And” joins repeats or separate records; there may be more than shown. ± marks the error that the study gave.

Cc1sc2ncn(CC(=O)N3CCCC3)c(=O)c2c1-c1cccc(Br)c1  mean open time (NMDA receptor, mouse; single-channel current, outside-out patch; cortical neurons; 50 µM, added: Ca2+ 1.25 mM): 5.8 ± 0.72 ms
C[n+]1cccc2cc(/C=N/NC(=O)c3ccc4ccc(C(=O)N/N=C/c5ccc6c(ccc[n+]6C)c5)nc4n3)ccc21  ΔTm (myc22 MYC G4-DNA parallel; FRET melting; 1 µM, K1 buffer, DNA 0.2 µM, added: ds26 10 µM): 16.1 ± 1.2 °C
Fc1ccc(Nc2nc(NC3CCCCC3)c3cc(C(F)(F)F)ccc3n2)cc1F  pIC50 (β2AR/β1AR TM5 chimera; β-arrestin2 recruitment, antagonist, BRET; added: isoprenaline 1 µM): 6.8
O=C(N/N=C/c1cc[n+](CC2CC2)c2ccccc12)c1cc(C(=O)N/N=C/c2cc[n+](CC3CC3)c3ccccc23)ncn1  ΔTm (myc22 MYC G4-DNA parallel; FRET melting; 1 µM, K1 buffer, DNA 0.2 µM, added: ds26 10 µM): 5.6 ± 0.3 °C
NCCOc1cc(NC(=O)c2cc(Cl)cc(C(=O)Nc3cc(OCCN)c4ccccc4n3)n2)nc2ccccc12  delta Tm (double-stranded DNA; FRET melting; 1 µM, pH 7.4, 60 mM potassium, added: oligonucleotide 200 nM): 0 K
C[n+]1ccc(/C=N/NC(=O)c2cccc(C(=O)N/N=C/c3cc[n+](C)c4ccccc34)n2)c2ccccc21  delta Tm (G-quadruplex DNA 22CTA antiparallel; UV melting; 6 µM, K10 buffer, added: DNA 3 µM): 37.1 °C
Nc1ncc(-c2cc(-c3cnn(CC(F)(F)F)c3)ncc2F)nc1C(=O)NC1CNCC(F)C1 (stereo not shown)  remaining binding (PAK2; KINOMEscan; 1 µM; relative to: DMSO control): 52%
CCCCCCc1cccc([C@H](O)C[C@H](CO)NC(=O)CCCCCOc2ccc3ccccc3c2)c1  SM/ceramide ratio C22 (ceramide transfer protein (CERT), human; cellular CERT activity, HPLC-MS/MS lipidomics; HeLa; 1 µM, 24 h): 17 ,0
O=C(N/N=C/c1ccc(C[n+]2ccccc2)cc1)c1cc(C(=O)N/N=C/c2ccc(C[n+]3ccccc3)cc2)ncn1  ΔTm (myc22 MYC G4-DNA parallel; FRET melting; 1 µM, K1 buffer, DNA 0.2 µM, added: ds26 10 µM): 3.5 ± 0.5 °C
Fc1ccc(Nc2nc(NC3CCCCC3)c3ccccc3n2)cc1F  maximal inhibition (β2AR/β1AR TM5 chimera; β-arrestin2 recruitment, antagonist, BRET; relative to: isoprenaline maximal response): 5.7%
CC(C)(O)c1ccn2c(-c3ccc(F)c(-c4ccc(F)cc4C#N)c3)cnc2c1F  protein interaction (GABAA receptor α1 G251D human; co-immunoprecipitation, refers to: BiP, calnexin, LMAN1; HEK-293T; 5 µM, 24 h, added: hispidulin 10 µM): increased
CCC(=O)N(C)c1ccc(Cl)c(Cl)c1  inhibition (GABA receptor, non-selective; radioligand binding; 10 µM): < 10%
CCCCCCc1cccc(C(O)CC(CO)NC(=O)CCCCCCCCCCNC(C)=O)c1 (stereo not shown)  SM/ceramide ratio C16 (ceramide transfer protein (CERT), human; cellular CERT activity, HPLC-MS/MS lipidomics; HeLa; 1 µM, 24 h): 29 ,1
C[n+]1cccc2cc(/C=N/NC(=O)c3cccc(C(=O)N/N=C/c4ccc5c(ccc[n+]5C)c4)c3)ccc21  ΔTm (myc22 MYC G4-DNA parallel; FRET melting; 1 µM, K1 buffer, DNA 0.2 µM, added: ds26 10 µM): 4.4 ± 0.3 °C
CCCCCCCCCCCC(=O)N[C@H](CO)C[C@@H](O)c1ccccc1  HexCer 24:1 amount (ceramide transfer protein (CERT), human; cellular CERT activity, HPLC-MS/MS lipidomics; HeLa; 1 µM, 24 h, normalised to cell number): 21400 pmol/sample and 21100 pmol/sample and 19300 pmol/sample
CC1(C)OCCc2cc(C(=O)N3CCC(c4nc(-c5ccccc5)n[nH]4)CC3)ccc21  IC50 (FSP1 F15A; resorufin formation, inhibitor; added: NADH, resazurin): no inhibition
O=C(N/N=C/c1cc[n+](CC2CC2)c2ccccc12)c1ccc2ccc(C(=O)N/N=C/c3cc[n+](CC4CC4)c4ccccc34)nc2n1  ΔTm (myc22 MYC G4-DNA parallel; FRET melting; 1 µM, K1 buffer, DNA 0.2 µM): 22.4 ± 0.4 °C
C=CC(=O)N1[C@H](c2ccc3c(c2)OCO3)c2[nH]c3ccccc3c2C[C@@H]1C(=O)N1CCN(C)CC1  relative co-enrichment (human cyclin E1 N112C-3xFLAG:CDK2; co-IP with TMT proteomics, refers to: SRSF3; concentration not given, P84103; relative to: wild type DMSO): 123%
O=C(N/N=C/c1ccc2c(ccc[n+]2Cc2ccccc2)c1)c1cncc(C(=O)N/N=C/c2ccc3c(ccc[n+]3Cc3ccccc3)c2)n1  ΔTm (myc22 MYC G4-DNA parallel; FRET melting; 1 µM, K1 buffer, DNA 0.2 µM): 19.4 ± 0.4 °C
c1ccc(-c2n[nH]cc2-c2ccnc3ccccc23)nc1  log2 fold change (KIC1 (Candida albicans); kinase binding, MIB/MS competition; Candida albicans lysate; 10 µM; relative to: DMSO): 0.1
CC(=O)NCCCN(C)CCCNc1cccc2c1C(=O)c1cccc(NCCCN(C)CCCNC(C)=O)c1C2=O  ΔTm (double-stranded DNA; DNA thermal stabilisation, CD melting; 4.5 µM, pH 7.4, added: 1.5 µM DNA, 100 mM KCl): < 0.5 °C
CC[n+]1cccc2cc(/C=N/NC(=O)c3ccc4ccc5ccc(C(=O)N/N=C/c6ccc7c(ccc[n+]7CC)c6)nc5c4n3)ccc21  ΔTm (myc22 MYC G4-DNA parallel; FRET melting; 1 µM, K1 buffer, DNA 0.2 µM, added: ds26 10 µM): 28.4 ± 0.7 °C
C=CC(=O)Nc1cccc(Cn2ncc3cnc(Nc4cnn(CCOC)c4)nc32)c1  percent of control (ARK5 human; binding, KINOMEscan; 100 nM; lower = stronger binding): 37%
NCCCn1cc(COc2cc(C(=O)Nc3cc(OCCN)c4ccccc4n3)nc(C(=O)Nc3cc(OCCN)c4ccccc4n3)c2)nn1  delta Tm (double-stranded DNA; FRET melting; 1 µM, pH 7.4, 60 mM potassium, added: oligonucleotide 200 nM): 0 ± 0.1 K
Cn1ccc2cc(-n3c(=O)[nH]c4sc5c(c4c3=O)CCCC5)ccc21  inhibition (rat central GABAA receptor; radioligand binding; 10 µM, added: muscimol): 1%
